Experimental data collected from several papers.
Every numbered part comes from another study and shows a few of its results, in no order. Changes are numbered by the printed parent chain.
UniProt Q16816, sequence (whole entry, looked up): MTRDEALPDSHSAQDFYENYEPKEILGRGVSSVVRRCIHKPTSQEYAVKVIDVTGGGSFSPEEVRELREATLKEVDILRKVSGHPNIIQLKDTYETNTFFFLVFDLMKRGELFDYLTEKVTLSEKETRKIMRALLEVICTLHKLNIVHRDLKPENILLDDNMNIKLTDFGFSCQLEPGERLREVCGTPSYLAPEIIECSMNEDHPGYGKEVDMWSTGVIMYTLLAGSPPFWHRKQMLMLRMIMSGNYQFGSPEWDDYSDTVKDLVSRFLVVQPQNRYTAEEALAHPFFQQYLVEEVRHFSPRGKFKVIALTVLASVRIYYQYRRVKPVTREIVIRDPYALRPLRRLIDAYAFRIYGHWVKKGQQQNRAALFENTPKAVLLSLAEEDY
UniProt P54764, sequence (whole entry, looked up): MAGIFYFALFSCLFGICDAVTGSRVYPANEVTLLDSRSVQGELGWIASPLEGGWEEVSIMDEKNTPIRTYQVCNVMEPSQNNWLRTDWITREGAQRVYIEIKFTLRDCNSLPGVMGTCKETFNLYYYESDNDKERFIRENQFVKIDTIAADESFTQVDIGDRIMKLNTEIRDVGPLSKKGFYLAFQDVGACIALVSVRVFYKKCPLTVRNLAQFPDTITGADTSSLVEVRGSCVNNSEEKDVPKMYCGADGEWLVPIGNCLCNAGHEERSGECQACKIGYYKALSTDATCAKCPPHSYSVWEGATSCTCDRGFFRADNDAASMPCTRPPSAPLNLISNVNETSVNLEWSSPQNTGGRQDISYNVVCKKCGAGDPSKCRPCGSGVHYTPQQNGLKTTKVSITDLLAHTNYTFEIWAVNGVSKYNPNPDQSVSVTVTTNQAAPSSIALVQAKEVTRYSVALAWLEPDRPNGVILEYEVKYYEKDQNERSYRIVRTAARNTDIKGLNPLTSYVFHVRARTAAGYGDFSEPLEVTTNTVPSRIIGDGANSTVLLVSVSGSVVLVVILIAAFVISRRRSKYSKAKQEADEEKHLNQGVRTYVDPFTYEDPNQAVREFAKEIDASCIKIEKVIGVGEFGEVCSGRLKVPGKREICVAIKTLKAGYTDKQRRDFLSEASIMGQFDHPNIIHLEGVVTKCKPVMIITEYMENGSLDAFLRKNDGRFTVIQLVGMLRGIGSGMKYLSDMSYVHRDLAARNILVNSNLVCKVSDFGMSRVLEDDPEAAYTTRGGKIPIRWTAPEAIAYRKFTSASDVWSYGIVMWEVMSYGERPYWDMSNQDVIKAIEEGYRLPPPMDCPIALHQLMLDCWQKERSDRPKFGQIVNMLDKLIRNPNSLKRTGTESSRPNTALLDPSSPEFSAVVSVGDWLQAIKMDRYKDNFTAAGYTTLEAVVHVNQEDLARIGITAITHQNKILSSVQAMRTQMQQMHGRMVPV
UniProt O43781, sequence (whole entry, looked up): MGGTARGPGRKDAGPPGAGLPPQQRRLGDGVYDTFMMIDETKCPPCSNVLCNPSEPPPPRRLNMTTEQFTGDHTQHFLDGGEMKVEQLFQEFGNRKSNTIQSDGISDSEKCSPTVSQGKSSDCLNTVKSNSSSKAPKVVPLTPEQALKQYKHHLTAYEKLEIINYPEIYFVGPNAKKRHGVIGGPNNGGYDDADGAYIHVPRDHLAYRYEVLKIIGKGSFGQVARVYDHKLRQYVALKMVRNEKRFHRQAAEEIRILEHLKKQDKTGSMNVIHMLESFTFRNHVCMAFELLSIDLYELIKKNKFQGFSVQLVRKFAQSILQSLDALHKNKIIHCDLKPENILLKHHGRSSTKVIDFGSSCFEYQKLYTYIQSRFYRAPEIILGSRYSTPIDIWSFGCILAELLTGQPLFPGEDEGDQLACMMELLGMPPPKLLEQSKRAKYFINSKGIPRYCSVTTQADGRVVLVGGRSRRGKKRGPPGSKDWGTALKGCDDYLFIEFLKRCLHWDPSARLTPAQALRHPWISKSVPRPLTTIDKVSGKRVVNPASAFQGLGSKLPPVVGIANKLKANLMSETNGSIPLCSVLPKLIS
UniProt Q16644, sequence (whole entry, looked up): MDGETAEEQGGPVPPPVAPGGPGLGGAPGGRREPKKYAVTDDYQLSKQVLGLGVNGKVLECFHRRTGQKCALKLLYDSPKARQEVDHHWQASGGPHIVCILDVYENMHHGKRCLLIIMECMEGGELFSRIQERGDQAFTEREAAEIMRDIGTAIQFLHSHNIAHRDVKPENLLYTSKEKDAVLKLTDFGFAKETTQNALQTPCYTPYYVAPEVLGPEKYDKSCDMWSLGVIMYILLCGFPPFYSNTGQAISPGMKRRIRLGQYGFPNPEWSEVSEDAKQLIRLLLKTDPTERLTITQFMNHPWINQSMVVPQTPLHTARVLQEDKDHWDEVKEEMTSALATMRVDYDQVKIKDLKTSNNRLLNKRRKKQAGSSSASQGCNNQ
UniProt P51451, sequence (whole entry, looked up): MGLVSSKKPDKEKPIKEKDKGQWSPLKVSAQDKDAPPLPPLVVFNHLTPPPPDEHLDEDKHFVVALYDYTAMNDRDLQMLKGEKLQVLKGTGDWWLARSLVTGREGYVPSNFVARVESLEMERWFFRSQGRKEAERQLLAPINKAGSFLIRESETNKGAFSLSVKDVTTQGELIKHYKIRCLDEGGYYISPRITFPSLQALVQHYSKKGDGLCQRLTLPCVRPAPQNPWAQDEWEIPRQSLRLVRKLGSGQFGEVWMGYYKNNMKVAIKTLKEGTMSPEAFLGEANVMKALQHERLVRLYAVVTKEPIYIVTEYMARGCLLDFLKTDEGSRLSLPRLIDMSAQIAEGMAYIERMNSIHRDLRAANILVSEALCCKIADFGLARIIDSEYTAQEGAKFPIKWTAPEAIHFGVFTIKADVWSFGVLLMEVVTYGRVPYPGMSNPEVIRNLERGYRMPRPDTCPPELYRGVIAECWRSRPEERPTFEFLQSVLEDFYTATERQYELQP
UniProt O75716, sequence (whole entry, looked up): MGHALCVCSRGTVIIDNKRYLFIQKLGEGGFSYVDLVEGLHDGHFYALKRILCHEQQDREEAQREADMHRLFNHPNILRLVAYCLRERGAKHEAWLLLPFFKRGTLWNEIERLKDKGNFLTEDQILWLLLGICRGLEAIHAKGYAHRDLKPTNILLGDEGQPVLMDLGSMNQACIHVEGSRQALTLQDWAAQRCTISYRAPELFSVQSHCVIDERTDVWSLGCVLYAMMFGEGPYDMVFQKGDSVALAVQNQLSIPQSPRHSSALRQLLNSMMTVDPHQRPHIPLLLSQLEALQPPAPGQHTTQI

Series 1
Target: Max dimerization protein 1, bHLH-zipper, MAX partner unstated (MXD1, Homo sapiens, UniProt Q05195, residues 56-136)
Method: protein-binding microarray
Molecule type: double-stranded DNA, one strand shown
Matrix: in vitro
Concentration: not given
Setting: k-mer, scored over probes, only values ≥0.25
Reading: higher = stronger binding
Target sequence (chain): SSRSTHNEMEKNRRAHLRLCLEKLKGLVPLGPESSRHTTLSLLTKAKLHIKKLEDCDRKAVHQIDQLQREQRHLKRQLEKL
Sequence	E-score
CCCACGCA	0.251
AGTCACGC	0.374
GTGCATGA	0.27
AACATGGT	0.306
CGTGCGGC	0.315
CGTGCACC	0.373
CCCCATGA	0.36
ACGCGGAT	0.281

Series 2
SMILES: CN([C@@H](Cc1ccc(OS(=O)(=O)c2cccc3cnccc23)cc1)C(=O)N1CCN(c2ccccc2)CC1)S(=O)(=O)c1cccc2cnccc12
Effect on: enzyme activity
Mode: inhibitor
Concentration: 0.5 µM
Baseline: control
target	remaining activity
Ephrin type-A receptor 4 (EPHA4, Homo sapiens, UniProt P54764)	95.4%
MAP kinase-activated protein kinase 3 (MAPKAPK3, Homo sapiens, UniProt Q16644)	101%
Phosphorylase b kinase gamma catalytic chain, skeletal muscle/heart isoform (PHKG1, Homo sapiens, UniProt Q16816)	93.4%
Tyrosine-protein kinase Blk (BLK, Homo sapiens, UniProt P51451)	102%
Dual specificity tyrosine-phosphorylation-regulated kinase 3 (DYRK3, Homo sapiens, UniProt O43781)	112%
Serine/threonine-protein kinase 16 (STK16, Homo sapiens, UniProt O75716)	104%

Series 3
Target: ABI1, truncated, D143A, DHFR fusion (Arabidopsis thaliana)
Method: DHFR PCA, deep sequencing
Matrix: yeast
Setting: methotrexate growth selection, single substitutions
Added: (+)-ABA 0.39 µM
Baseline: wild-type fitted maximum
Reading: higher = stronger binding
Starting sequence: PYL1, truncated, DHFR fusion (Arabidopsis thaliana); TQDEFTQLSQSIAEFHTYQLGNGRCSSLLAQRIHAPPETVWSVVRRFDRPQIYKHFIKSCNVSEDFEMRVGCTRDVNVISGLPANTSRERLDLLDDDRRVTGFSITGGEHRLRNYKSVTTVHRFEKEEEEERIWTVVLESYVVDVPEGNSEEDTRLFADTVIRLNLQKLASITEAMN; partner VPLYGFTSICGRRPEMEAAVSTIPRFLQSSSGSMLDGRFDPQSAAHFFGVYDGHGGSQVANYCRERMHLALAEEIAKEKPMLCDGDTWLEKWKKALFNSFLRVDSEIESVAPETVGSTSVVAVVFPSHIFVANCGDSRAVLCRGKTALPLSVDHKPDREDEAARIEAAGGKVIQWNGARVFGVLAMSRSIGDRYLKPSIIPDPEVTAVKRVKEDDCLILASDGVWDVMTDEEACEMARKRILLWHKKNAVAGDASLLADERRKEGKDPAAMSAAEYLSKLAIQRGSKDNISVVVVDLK
Change	relative binding score [%]
E38K	-2.54
V44I	28.1
D95Q	-11.5
E152T	17.1
W41N	-2.17
Q31G	-5.29
G71W	-15
S150K	5.54

Series 4
Target: Alpha-2B adrenergic receptor (ADRA2B, Homo sapiens, UniProt P18089)
UniProt P18089, sequence (whole entry, looked up): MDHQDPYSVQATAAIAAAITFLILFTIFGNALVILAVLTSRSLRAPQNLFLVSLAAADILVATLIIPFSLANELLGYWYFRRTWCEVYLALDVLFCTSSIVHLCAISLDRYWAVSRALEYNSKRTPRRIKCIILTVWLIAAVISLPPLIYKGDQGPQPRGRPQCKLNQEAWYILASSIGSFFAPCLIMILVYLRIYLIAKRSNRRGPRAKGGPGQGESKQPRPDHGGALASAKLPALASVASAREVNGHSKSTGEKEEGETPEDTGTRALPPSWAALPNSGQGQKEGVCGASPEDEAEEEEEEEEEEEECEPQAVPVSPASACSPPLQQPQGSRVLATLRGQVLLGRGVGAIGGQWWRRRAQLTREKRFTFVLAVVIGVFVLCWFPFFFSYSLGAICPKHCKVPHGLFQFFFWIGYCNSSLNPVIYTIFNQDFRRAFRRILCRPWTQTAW
Effect on: ligand displacement
Concentration: 10 µM
Structure (SMILES)	inhibition
CC(=O)N1CCC(c2ccc(C(=O)NC3=NCCN3)cc2C(F)(F)F)CC1	1.01%
Cc1c(NC(=O)c2cc(C(N)=O)nc3cc(F)ccc23)c(C(F)(F)F)nn1Cc1ccc(C#N)cc1	7.65%
CCC(F)(F)c1cc(N2CCC(S(C)(=O)=O)CC2)nc2sc(C(N)=O)c(N)c12	9.66%
CN(C)c1ncnc(-c2ccc3nc(Nc4cc(CN5CCN(C(=O)CC(F)(F)F)CC5)ccn4)[nH]c3c2)c1Cl	-2.22%
CCC(=NO)C(C)=Cc1ccc(F)c(C)c1	33.1%
CN1CCN(c2cnc3c(C4CCN(C(=O)c5ccc(OC(F)(F)F)cc5N)CC4)ncnc3c2)CC1	-8.47%
O=S(=O)(NC1CCC(c2cc(F)ccc2F)(S(=O)(=O)c2ccc(Cl)cc2)CC1)C(F)(F)F (stereo not shown)	-2.13%
CN1CCN(c2ccnc(NCCc3ccccc3)n2)CC1	98%
O=C(N[C@H]1CCCCC/C=C\C2C[C@@]2(C(=O)O)NC(=O)[C@@H]2C[C@@H](Oc3ccncc3)CN2C1=O)OC1CCCC1 (stereo partly shown)	8.15%
c1ccc(C2CCN(c3cnc4c(N5CCOCC5)nccn34)CC2)cc1	31.4%
Cc1cc(Nc2nccc(C)n2)cc(-c2cnc([C@@]3(O)CC[C@H](C(=O)O)C(C)(C)C3)s2)c1	-7.14%
CS(=O)(=O)N1CCCC(NC(=O)[C@H](CCC2CCCCC2)NC(=O)c2ccc(CNC(=O)c3cnc4ccccn34)cc2)C1 (stereo partly shown)	13.5%
